Assay results collected from several papers.
± gives the spread as reported.
DRD3: D(3) dopamine receptor (DRD3, Homo sapiens, UniProt P35462)
Sequence of UniProt P35462 (whole entry, looked up): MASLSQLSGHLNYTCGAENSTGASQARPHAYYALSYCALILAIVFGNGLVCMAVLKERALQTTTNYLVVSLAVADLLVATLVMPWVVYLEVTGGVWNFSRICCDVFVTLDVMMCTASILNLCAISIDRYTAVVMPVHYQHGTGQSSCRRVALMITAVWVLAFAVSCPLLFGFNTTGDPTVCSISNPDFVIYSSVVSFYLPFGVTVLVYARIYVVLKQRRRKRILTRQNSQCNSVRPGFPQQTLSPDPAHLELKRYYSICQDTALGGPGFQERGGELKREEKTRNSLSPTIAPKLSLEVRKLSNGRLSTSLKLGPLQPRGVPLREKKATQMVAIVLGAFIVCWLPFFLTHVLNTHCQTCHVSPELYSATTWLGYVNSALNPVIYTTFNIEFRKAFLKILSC
LYN: Tyrosine-protein kinase Lyn (LYN, Homo sapiens, UniProt P07948)
Sequence of UniProt P07948 (whole entry, looked up): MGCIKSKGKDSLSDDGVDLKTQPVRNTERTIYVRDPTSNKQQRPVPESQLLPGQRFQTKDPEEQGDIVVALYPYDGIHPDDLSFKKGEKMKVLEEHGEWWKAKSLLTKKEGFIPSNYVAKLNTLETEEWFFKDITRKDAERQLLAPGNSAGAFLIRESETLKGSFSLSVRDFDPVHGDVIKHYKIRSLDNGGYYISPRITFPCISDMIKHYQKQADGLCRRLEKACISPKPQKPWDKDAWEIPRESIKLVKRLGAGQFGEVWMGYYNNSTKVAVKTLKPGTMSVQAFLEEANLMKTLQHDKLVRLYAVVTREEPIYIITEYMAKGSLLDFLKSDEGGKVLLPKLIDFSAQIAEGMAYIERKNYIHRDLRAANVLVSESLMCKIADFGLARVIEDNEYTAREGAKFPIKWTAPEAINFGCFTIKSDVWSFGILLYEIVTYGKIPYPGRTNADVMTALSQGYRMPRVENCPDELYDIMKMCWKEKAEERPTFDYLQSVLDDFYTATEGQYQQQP
Sequence of UniProt P31645 (whole entry, unmodified, looked up): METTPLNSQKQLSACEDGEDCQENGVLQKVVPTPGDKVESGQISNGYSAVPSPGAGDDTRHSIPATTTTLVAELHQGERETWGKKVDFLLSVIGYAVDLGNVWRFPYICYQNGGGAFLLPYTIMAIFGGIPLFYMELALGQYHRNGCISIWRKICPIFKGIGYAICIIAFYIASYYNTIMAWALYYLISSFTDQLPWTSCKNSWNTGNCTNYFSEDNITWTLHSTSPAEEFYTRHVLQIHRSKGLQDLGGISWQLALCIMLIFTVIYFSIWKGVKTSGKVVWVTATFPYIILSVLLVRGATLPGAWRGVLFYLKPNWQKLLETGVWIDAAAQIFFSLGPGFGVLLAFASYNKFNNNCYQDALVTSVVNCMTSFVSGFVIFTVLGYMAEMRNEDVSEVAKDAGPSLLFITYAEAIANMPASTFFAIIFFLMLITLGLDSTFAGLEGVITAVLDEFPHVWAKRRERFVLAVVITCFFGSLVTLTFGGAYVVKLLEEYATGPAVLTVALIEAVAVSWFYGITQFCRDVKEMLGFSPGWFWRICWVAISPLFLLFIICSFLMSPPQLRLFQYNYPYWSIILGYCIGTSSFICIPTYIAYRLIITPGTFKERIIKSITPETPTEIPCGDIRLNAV
Sequence of UniProt P35348 (whole entry, looked up): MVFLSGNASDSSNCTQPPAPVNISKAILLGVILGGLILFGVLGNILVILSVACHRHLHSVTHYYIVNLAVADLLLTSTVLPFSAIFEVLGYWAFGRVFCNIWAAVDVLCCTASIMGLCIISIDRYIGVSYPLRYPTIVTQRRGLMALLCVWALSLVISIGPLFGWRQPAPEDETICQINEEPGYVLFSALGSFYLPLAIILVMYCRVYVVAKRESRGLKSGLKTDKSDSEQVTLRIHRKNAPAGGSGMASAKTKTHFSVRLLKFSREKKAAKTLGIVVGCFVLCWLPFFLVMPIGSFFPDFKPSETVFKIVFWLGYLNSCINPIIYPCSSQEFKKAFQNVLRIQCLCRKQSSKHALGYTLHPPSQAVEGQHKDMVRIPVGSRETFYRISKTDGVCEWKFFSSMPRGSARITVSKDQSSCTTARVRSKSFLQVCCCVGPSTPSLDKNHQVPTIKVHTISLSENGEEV
Sequence of UniProt P41143 (whole entry, unmodified, looked up): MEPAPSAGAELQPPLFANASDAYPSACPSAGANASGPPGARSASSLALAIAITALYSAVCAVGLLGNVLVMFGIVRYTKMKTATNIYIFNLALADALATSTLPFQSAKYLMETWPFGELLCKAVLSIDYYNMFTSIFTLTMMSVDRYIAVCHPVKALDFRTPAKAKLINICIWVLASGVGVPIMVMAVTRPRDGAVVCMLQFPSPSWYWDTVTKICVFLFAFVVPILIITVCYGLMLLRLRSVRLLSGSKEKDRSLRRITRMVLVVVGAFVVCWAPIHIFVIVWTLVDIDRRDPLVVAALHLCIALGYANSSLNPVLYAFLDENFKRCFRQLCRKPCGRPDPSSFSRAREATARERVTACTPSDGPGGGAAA

CCN(CC)C(=O)[C@@H]1C=C2c3cccc4c3c(cn4C(=O)c3ccco3)C[C@H]2N(C)C1
Ki (Alpha-1A adrenergic receptor (ADRA1A, Homo sapiens, UniProt P35348); ligand displacement, radioligand): > 10000 nM

CNCc1ccc(-c2cc(Cl)cc(Cl)c2)o1
Ki (DRD3; binding): 400 nM

CC(C)n1nc(-c2ccc3cc(OCc4ccccc4)ccc3c2)c2c(N)ncnc21
Ki (LYN; enzyme activity, inhibitor): 790 nM

CCC[C@@H](C(=O)c1ccccc1)N1CCCC1
Ki (Sodium-dependent serotonin transporter (SLC6A4, Homo sapiens, UniProt P31645, Y95F); transporter uptake, inhibitor, radiometric): 126000 nM

CC(C)n1nc(-c2ccc3c(c2)OCO3)c2c(N)ncnc21
Ki (LYN; enzyme activity, inhibitor): 160 nM

CNCc1ccc(-c2cc(Cl)ccc2Cl)o1
Ki (DRD3; binding): 700 nM

CC(C)n1nc(-c2ccc3cc(OCc4cccc(Cl)c4)ccc3c2)c2c(N)ncnc21
Ki (LYN; enzyme activity, inhibitor): 3800 nM

c1ccc2c(c1)OC[C@@H](CNCc1cccc3cccnc13)O2
Ki (DRD3; binding): 100 nM

CCN(CC)C(=O)c1ccc(C(c2cccc(O)c2)N2CC(C)N(Cc3ccccc3)CC2C)cc1 (stereo not drawn)
Ki (Delta-type opioid receptor (OPRD1, Homo sapiens, UniProt P41143, I277A)): 0.63 ± 0.27 nM

Some of these lines once more:
CCN(CC)C(=O)[C@@H]1C=C2c3cccc4c3c(cn4C(=O)c3ccco3)C[C@H]2N(C)C1
Ki (Alpha-1A adrenergic receptor (ADRA1A, Homo sapiens, UniProt P35348); ligand displacement, radioligand): > 10000 nM
